Measured values gathered from unrelated publications.
Each line is one published result; not all experiments were run side by side. ± gives the spread as reported.

Protein sequences, listed by entry. Tags and fused reporters are not part of them. Residues count along the entry.
UniProt P45983, 1-384 isoform 3: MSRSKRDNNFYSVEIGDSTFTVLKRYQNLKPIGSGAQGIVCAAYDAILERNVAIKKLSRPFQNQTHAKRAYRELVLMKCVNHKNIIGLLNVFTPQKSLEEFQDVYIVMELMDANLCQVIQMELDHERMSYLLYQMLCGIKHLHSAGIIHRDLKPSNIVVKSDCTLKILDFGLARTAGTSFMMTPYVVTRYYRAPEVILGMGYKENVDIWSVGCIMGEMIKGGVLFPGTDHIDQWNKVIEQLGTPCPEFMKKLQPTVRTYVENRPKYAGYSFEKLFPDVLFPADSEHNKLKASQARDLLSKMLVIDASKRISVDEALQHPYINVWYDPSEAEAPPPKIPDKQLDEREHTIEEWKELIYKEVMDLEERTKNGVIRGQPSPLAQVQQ

SMILES	target or system	assay	test system	conditions	how to read	quantity	result
NCc1cccc(C2CCN(C(=O)c3cccc(NC(=O)C(O)C4(O)CCC4)c3)CC2)c1 (racemic)	tryptase, human	enzyme activity, inhibitor	HMC-1, supernatant after degranulation	2 h, with: 1 µM A23187 for 1 h	–	IC50	137000 nM
Nc1ccc(Cl)c2cccnc12	SIRT1	immunoblot	HUVEC	up to 10 µM	–	acetyl-p53 level	no effect
COc1cccc(Cc2cc(C)nn(C(C(=O)Nc3ccc(Br)cc3)c3ccccc3)c2=O)c1 (racemic)	human formyl peptide receptors	calcium mobilization, agonist	human neutrophils	–	–	EC50	4300 nM
CCC[C@H](O)[C@H](NC[C@@H]1Cc2cccc(c2)CCCCc2cc(cc(N(CCC)S(C)(=O)=O)c2)C(=O)N1)C(=O)NCC(C)C	BACE1 and BACE2	enzyme activity, inhibitor, fluorogenic peptide substrate	–	–	baseline: BACE2 Ki over BACE1 Ki	selectivity ratio	15 fold
CCCCN(CCc1ccc(Cl)c(Cl)c1)C[C@H](O)COc1ccc(NS(C)(=O)=O)cc1	NMDA receptor GluN1/GluN2A/GluN2B	–	Xenopus oocytes	–	baseline: acidic over neutral pH	potency ratio	4.4 fold
C/C=C/Cn1c(Cc2cc(OC)c(OC)c(OC)c2)nc2c(N)ncnc21	Hsp90β	binding, fluorescence polarization competition	–	with: Cy3B-geldanamycin tracer	–	Ki	16900 ± 2200 nM
COc1cc([C@@H]2c3cc4c(cc3[C@@H](CC(C)(C)O)[C@H]3COC(=O)[C@H]23)OCO4)cc(OC)c1OC	Leishmania infantum	iRFP fluorescence	mouse splenocytes infected, amastigote, iRFP, ex vivo splenic explant	48 h	–	EC50	53700 ± 5200 nM
COc1cc(C(=O)N2CCC(N3CCN(C)CC3)CC2)ccc1Nc1ncc2c(n1)N(C1CCC1)c1ccccc1C(=O)N2C	ERK5, human	autophosphorylation	HeLa	with: EGF	–	EC50	19 ± 5 nM
CCC(NC(=O)[C@@H](NC(=O)[C@@H](NC(=O)CNC(=O)[C@H](CCCNC(=N)N)NC(=O)[C@H](Cc1ccc(O)cc1)NS(=O)(=O)c1cccc2c(N(C)C)cccc12)[C@@H](C)CC)[C@@H](C)O)B(O)O (some centres unmarked)	Lon protease (rat)	protein degradation, import pulse-chase, refers to: radiolabelled StAR	isolated rat liver mitochondria	10 µM, 120 min chase, 30 °C	–	StAR remaining	83%
O=C(Nc1cccc(F)c1)c1cc(S(=O)(=O)N2CCOCC2)c(Cl)cc1Cl	autotaxin (human)	cell invasion	A2058	10 µM, 16 h, with: 0.3 nM autotaxin, 1 µM LPC 18:1	–	inhibition	67 ± 14.4%
COc1cccc(Cc2cc(C)nn(C(C)(C)C(=O)Nc3ccc(Br)cc3)c2=O)c1	human formyl peptide receptors	calcium mobilization, agonist	human neutrophils	–	–	EC50	4700 nM
CCOC(=O)C1=C(C)NC2=C(C(=O)CC(C)(C)C2)C1c1ccc(OCC(=O)NN=Cc2cccc(C=O)c2)cc1OCC(=O)NN=Cc1cccc(C=O)c1 (centres unmarked)	Bacillus cereus	–	EMC 19	concentration not given, 24 h	–	inhibition zone diameter	4.1 ± 0.01 mm
COC(=O)[C@@H]1C(C=Nc2cc(Cl)ccc2O)=Cc2cc3c(cc2[C@H]1c1cc(OC)c(OC)c(OC)c1)OCO3	Leishmania	–	mouse splenocytes	–	baseline: CC50 over amastigote EC50	selectivity index	1.5
CC(C)Oc1cc(C(=O)N2CCC(N3CCN(C)CC3)CC2)ccc1Nc1ncc2c(n1)N(C1CCCC1)c1ccccc1C(=O)N2C	ERK5, human	autophosphorylation	HeLa	with: EGF	–	EC50	32 ± 9 nM
CC(Oc1cc(-c2ccccn2)nc2ccccc12)C(=O)N(C)c1ccccc1 (racemic)	human receptor and transporter panel	specific binding, radioligand binding screen	–	10 µM, all targets except 5-HT1A	–	inhibition	< 50%
O=C1Nc2cccc(C#CC3(O)CCNCC3)c2/C1=C/c1cc2ccccc2[nH]1	kinase panel majority	–	–	–	baseline: panel kinases over TAO3	selectivity ratio	5 to 10
COC(=O)C1(c2ccccc2)C=C(C(=O)OC(C)(C)C)C(=O)CC1 (centres unmarked)	p38α MAPK human	–	–	–	baseline: Ki JNK1 over Ki p38α	selectivity ratio	> 10 fold
O=C(CCCCCCC(=O)Nc1ccc(-c2c3ccc(=O)cc-3oc3cc(O)ccc23)c(C(=O)O)c1)NO	HDAC6 H651V (human)	binding, fluorescence anisotropy	–	–	baseline: H651V mutant over wild type, higher = weaker binding	Kd ratio	150 fold
COc1cc(Nc2ccnc3cc(C#N)ccc23)cc(OC)c1OC	human COQ8A N-terminal truncated F495L	ATPase activity	–	–	baseline: F495L over wild type	IC50 fold change	> 10 fold
COc1cc(C(=O)N2CCC(N3CCN(C)CC3)CC2)ccc1Nc1ncc2c(n1)N(C(C)C)c1ccccc1C(=O)N2C	ERK5, human	autophosphorylation	HeLa	with: EGF	–	EC50	14 ± 4 nM
COC(=O)[C@@]1(C)C=C(C(=O)Nc2cccc(C(=O)NC34CC(Nc5nccc(-c6cccnc6)n5)(C3)C4)c2)C(=O)CC1	MAPK8 (Homo sapiens, UniProt P45983)	kinase activity, inhibitor	–	2.788e-05 µM, unit not given, with: 10 mM GSH	baseline: DMSO	remaining activity	1.02
CCC(C)(C(=O)Nc1ccc(Br)cc1)n1nc(C)cc(Cc2cccc(OC)c2)c1=O (racemic)	human formyl peptide receptors	calcium mobilization, agonist	human neutrophils	–	–	EC50	500 nM
O=C(NNC(=S)Nc1cccc(C(F)(F)F)c1)c1cccn1-c1ccc(F)cc1	glucocorticoid receptor	reporter gene, antagonist	MDA-kb2	20 h, with: dexamethasone 10 nM	–	IC50	1300 nM

Some of these lines once more:
SMILES	target or system	assay	test system	conditions	how to read	quantity	result
COC(=O)[C@@H]1C(C=Nc2cc(Cl)ccc2O)=Cc2cc3c(cc2[C@H]1c1cc(OC)c(OC)c(OC)c1)OCO3	Leishmania	–	mouse splenocytes	–	baseline: CC50 over amastigote EC50	selectivity index	1.5
O=C(CCCCCCC(=O)Nc1ccc(-c2c3ccc(=O)cc-3oc3cc(O)ccc23)c(C(=O)O)c1)NO	HDAC6 H651V (human)	binding, fluorescence anisotropy	–	–	baseline: H651V mutant over wild type, higher = weaker binding	Kd ratio	150 fold
